Published values of several laboratories.
± gives the spread as reported.
APP: Amyloid-beta precursor protein (APP, Homo sapiens, UniProt P05067)
Sequence of UniProt P05067 (whole entry, looked up): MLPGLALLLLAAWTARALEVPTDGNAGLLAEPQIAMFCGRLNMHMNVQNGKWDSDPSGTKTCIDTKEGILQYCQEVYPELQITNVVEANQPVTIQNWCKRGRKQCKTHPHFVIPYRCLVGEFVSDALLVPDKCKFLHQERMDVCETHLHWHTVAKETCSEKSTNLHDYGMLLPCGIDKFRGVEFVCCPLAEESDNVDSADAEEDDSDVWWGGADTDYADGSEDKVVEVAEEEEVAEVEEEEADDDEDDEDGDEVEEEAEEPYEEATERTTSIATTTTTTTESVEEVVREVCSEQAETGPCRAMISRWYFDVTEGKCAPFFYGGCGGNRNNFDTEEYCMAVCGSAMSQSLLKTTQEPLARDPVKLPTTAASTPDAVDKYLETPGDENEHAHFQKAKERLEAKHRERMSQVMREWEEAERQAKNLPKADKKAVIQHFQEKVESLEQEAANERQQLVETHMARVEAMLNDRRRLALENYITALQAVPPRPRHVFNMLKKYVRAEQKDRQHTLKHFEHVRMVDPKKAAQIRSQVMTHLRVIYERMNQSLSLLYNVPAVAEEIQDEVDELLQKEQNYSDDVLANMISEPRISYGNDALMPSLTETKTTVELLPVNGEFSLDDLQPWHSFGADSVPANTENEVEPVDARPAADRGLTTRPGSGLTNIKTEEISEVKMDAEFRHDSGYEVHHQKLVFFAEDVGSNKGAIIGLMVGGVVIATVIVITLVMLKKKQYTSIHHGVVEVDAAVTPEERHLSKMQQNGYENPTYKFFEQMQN
APP Aβ40 fibrils: Amyloid-beta precursor protein, Aβ40 fibrils (APP, Homo sapiens, UniProt P05067)
APP Aβ42 fibrils: Amyloid-beta precursor protein, Aβ42 fibrils (APP, Homo sapiens, UniProt P05067)

COc1cc(-c2nc3ccccc3s2)cc(CN2CCN(C)CCN(Cc3cc(-c4nc5ccccc5s4)cc(OC)c3O)CC2)c1O  Ki (APP; ligand displacement, fluorescence): 1.3 µM
COc1cc(C=Cc2cc(-[c-]3cccc3)n(C(=O)[c-]3cccc3)n2)ccc1O.[Fe+2].[Fe+2].c1cc[cH-]c1.c1cc[cH-]c1  DC50 (APP Aβ40 fibrils; amyloid fibril disassembly, thioflavin T fluorescence; 24 h, 37 °C, added: 25 µM amyloid-beta): 70 ± 7 µM
COc1cc(-c2nc3ccccc3s2)cc(CN2CCNCCN(Cc3cc(-c4nc5ccccc5s4)cc(OC)c3O)CC2)c1O  Ki (APP; ligand displacement, fluorescence): 0.29 µM
COc1cc(/C=C/c2cc(-[c-]3cccc3)n(C(=O)c3ccccc3)n2)ccc1O.[Fe+2].c1cc[cH-]c1  DC50 (APP Aβ40 fibrils; amyloid fibril disassembly, thioflavin T fluorescence; 24 h, 37 °C, added: 25 µM amyloid-beta): 12 ± 1 µM
COc1cc(-c2nc3ccccc3s2)cc(CN2CCN(C)CCN(C)CC2)c1O  Kd (APP Aβ40 fibrils; amyloid-β fibril binding, direct fluorescence; Aβ 5 µM): 0.58 µM
CC(C)(C)N1Cc2cccc(n2)CN(C(C)(C)C)Cc2cc(-c3nc4ccccc4s3)cc(n2)C1.[Cu+2]  Ki (APP Aβ42 fibrils; amyloid-beta 42 binding, thioflavin T competition; pH 7.4): 0.62 ± 0.17 µM
Clc1ccc2c(c1)N(CCCN1CCN(CCn3cc(CN4CCCNCCN(Cc5cn(CCN6CCN(CCCN7c8ccccc8Sc8ccc(Cl)cc87)CC6)nn5)CCCNCC4)nn3)CC1)c1ccccc1S2.[Cu+2].[O-][Cl+3]([O-])([O-])[O-].[O-][Cl+3]([O-])([O-])[O-]  Kd (APP; binding, NMR): 3.7 µM
[Cu+].c1cc2nc(c1)CSCc1cc(-c3nc4ccccc4s3)cc(n1)CSC2  Ki (APP Aβ42 fibrils; amyloid-beta 42 binding, thioflavin T competition; pH 7.4): 0.84 ± 0.13 µM
COc1cc(-c2nc3ccccc3s2)cc(CN2CCN(Cc3cc(-c4nc5ccccc5s4)cc(OC)c3O)CCN(C(C)C)CC2)c1O  Ki (APP; ligand displacement, fluorescence): 1.3 µM
CC(C)(C)N1Cc2cccc(n2)CN(C(C)(C)C)Cc2cccc(n2)C1.[Cu+2]  Ki (APP Aβ42 fibrils; amyloid-beta 42 binding, thioflavin T competition; pH 7.4): 7.78 ± 2.15 µM
CCCC[C@@H]1NC(=O)[C@@H](CC(C)C)NC(=O)[C@H](CCCCN)NC(=O)[C@@H](CO)NC(=O)[C@H](Cc2c[nH]cn2)NC(=O)[C@@H](Cc2c[nH]c3ccccc23)NC1=O  Kd (Amyloid-beta precursor protein, fibril (APP, Homo sapiens, UniProt P05067); binding, SPR): 6 µM
COc1cc(/C=C/C(=O)C2=C(/C=C/c3ccc(O)c(OC)c3)NC(=O)NC2[c-]2cccc2)ccc1O.[Fe+2].c1cc[cH-]c1 (racemic)  DC50 (APP Aβ40 fibrils; amyloid fibril disassembly, thioflavin T fluorescence; 24 h, 37 °C, added: 25 µM amyloid-beta): 8.7 ± 0.8 µM

Excerpt of the above:
COc1cc(/C=C/c2cc(-[c-]3cccc3)n(C(=O)c3ccccc3)n2)ccc1O.[Fe+2].c1cc[cH-]c1  DC50 (APP Aβ40 fibrils; amyloid fibril disassembly, thioflavin T fluorescence; 24 h, 37 °C, added: 25 µM amyloid-beta): 12 ± 1 µM
